Results from different studies.
A part holds a random share of what one study measured. Substitutions count along the parent as printed.

Series 1
Target: CCND3, cyclin fold, Cln2 fusion (human)
Technique: yeast growth competition, sequencing
Medium: yeast
Notes: weak parent motif
Relative to: not given
Direction: higher = stronger binding
Starting sequence: viral docking peptide; TSVRRALFTGGSD; partner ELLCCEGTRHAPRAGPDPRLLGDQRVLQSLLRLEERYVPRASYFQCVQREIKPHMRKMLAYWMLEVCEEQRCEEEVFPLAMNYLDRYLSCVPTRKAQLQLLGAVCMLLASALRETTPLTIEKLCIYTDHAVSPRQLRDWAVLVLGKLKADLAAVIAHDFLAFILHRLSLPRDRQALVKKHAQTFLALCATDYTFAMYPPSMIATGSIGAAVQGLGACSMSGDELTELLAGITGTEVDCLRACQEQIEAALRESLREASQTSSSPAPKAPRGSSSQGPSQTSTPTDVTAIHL
| Substitution | normalised enrichment score |
| --- | --- |
| A6F | -0.103 |
| A6Q | 0.206 |
| G10D | -0.213 |
| S2N | 0.177 |
| G10I | -0.0323 |
| A6R | 0.432 |
| R5D | -0.266 |
| G11H | -0.116 |
| R4C | -0.477 |
| L7S | -0.19 |
| D13A | 0.121 |
| G11L | 0.0854 |
| R4K | -0.121 |
| G11C | 0.408 |
| V3Q | -0.178 |
| S12P | 0.0552 |
| L7Y | 0.574 |
| F8N | 0.23 |
| T9D | -0.0243 |
| S2H | 0.158 |

Series 2
Target: CRIPT, C-terminal peptide
Technique: DHFR complementation, deep sequencing
Medium: yeast
Notes: single substitutions, model-inferred values
Relative to: wild type
Direction: higher = weaker binding
Starting sequence: ERBIN, PDZ domain 1 (human); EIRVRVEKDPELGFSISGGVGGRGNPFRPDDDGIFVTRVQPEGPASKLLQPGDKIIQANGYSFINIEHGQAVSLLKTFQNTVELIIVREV; partner TKNYKQTSV
| Substitution | binding free energy change [kcal/mol] |
| --- | --- |
| G43R | 0.225 |
| I56P | 0.658 |
| P10K | -0.735 |
| I2Q | 0.19 |
| A71T | 0.831 |
| I34N | 0.192 |
| G22A | -0.854 |
| T77V | 0.308 |

Series 3
Target: PABPC1L2, full length, GST fusion (mouse, UniProt A0ABA7IW68)
Technique: RNAcompete
Molecule type: RNA
Medium: in vitro
Tested at: 20 nM
Notes: 7-mer, probes averaged, single round
Relative to: mean of 7-mers
Direction: higher = stronger binding
Residues (chain): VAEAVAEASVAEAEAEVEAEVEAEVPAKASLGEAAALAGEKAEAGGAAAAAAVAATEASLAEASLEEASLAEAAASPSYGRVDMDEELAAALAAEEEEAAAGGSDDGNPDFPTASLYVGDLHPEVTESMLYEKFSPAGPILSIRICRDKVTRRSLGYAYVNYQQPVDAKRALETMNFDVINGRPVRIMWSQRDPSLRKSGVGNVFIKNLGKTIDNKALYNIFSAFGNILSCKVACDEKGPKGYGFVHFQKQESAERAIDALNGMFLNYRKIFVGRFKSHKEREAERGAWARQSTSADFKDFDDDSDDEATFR
| Oligonucleotide | 7-mer Z-score |
| --- | --- |
| GCUUUUU | 0.133 |
| GUACUCG | -0.199 |
| AAACAGC | 2.8 |
| UCUCUCG | -0.349 |
| ACUCGAU | -0.186 |
| GUGUUGC | -0.244 |
| GUAGGAG | -0.148 |
| AUGUGUU | -0.34 |

Series 4
Target: Hepatocyte nuclear factor 3-beta, forkhead domain (FOXA2, Homo sapiens, UniProt Q9Y261, residues 142-269)
Technique: protein-binding microarray
Molecule type: double-stranded DNA, one strand shown
Medium: in vitro
Tested at: not given
Notes: k-mer, scored over probes, only values ≥0.25
Direction: higher = stronger binding
Construct (chain): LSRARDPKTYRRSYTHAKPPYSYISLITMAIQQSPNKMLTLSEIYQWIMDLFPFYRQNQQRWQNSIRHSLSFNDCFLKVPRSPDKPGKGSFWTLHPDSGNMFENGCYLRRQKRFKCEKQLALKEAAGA
| Oligonucleotide | E-score |
| --- | --- |
| TCAACACA | 0.343 |
| CAAGTATA | 0.288 |
| CCATTAAC | 0.314 |
| GTGTGTGA | 0.259 |
| AATTACTC | 0.263 |
| ATTTACAA | 0.33 |
| ATCATAAT | 0.33 |
| ATTACAAC | 0.342 |
